Experimental data of several laboratories.
Parts stem from different laboratories: compare values within a part only. Several values in a cell are separate wells, animals, samples, runs or records. Substitutions count along the parent as printed.

Set 1 — method: RNAcompete; form: RNA; medium: in vitro; concentration: 20 nM; setting: 7-mer, probes averaged, single round; baseline: mean of 7-mers; direction: higher = stronger binding; quantity: 7-mer Z-score
Target: PABPC1L2, full length, GST fusion (mouse, UniProt A0ABA7IW68)
Construct (chain): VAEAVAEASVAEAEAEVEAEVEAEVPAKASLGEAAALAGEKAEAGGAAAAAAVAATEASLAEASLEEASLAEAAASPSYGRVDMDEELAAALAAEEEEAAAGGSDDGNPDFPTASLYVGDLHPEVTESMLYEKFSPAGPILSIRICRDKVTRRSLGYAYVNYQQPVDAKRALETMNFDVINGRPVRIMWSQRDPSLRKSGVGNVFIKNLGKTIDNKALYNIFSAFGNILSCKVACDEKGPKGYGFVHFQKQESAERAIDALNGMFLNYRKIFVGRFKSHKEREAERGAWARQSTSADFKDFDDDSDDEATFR
UGUACCA: -0.275
CGUCAGU: -0.364
UUAUAGG: -0.0591
GACUUAC: -0.144
CUGGGUG: 0.0768
ACUGUAG: 0.00798
CAGUUGG: -0.05
GAAUUGG: -0.00652
ACUUCAA: -0.0609
UCCUGUU: -0.465
GAGAAUC: -0.151
CAUCUUG: -0.344

Set 2 — target: CCND2, cyclin fold, Cln2 fusion (human); method: yeast growth competition, sequencing; medium: yeast; setting: weak parent motif; baseline: not given; direction: higher = stronger binding; quantity: normalised enrichment score
Starting sequence: CDC6 docking peptide (human); TLKGRRLVFDNQL; partner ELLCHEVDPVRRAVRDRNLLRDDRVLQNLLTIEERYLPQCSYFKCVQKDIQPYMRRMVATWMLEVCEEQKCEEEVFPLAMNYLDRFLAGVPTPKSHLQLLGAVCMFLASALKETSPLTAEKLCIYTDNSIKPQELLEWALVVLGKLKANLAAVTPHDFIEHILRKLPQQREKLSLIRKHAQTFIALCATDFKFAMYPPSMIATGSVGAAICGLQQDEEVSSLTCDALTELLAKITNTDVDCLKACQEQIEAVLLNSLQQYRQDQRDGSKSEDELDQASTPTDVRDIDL
G4Y: -0.0596
D10Q: -0.447
K3E: 0.23
R6C: 0.538
F9M: 0.127
T1Q: 0.0493
R5Y: -0.0655
N11A: 0.629
R5N: -0.0418

Set 3 — method: RNA Bind-n-Seq; form: RNA; medium: in vitro; concentration: 200 nM; setting: whole 134-nt RNA, ends assumed; together with: 150 mM KCl; baseline: input library; direction: higher = stronger binding; quantity: log2 enrichment
Target: Fragile X messenger ribonucleoprotein 1, C-terminal low-complexity region (Fmr1, Mus musculus, UniProt P35922)
Shared flanks, not repeated: GGGAGUUCUACAGUCCGACGAUC … UGGAAUUCUCGGGUGUCAAGG
GUGCUACACAUCGUAUGUACCGAAUCGGGGAAAAAAAGGGGAAAAAAAGGGGAAAAAAAGGGGAAAGUAUUAUGUUACGCCGUUCGGAUC: -0.0254
UAACUUUAGAGGAGGAUCUGAUGGAUAUGGCAGUGGACGUGGAUUUGGGGAUGGCUAUAAUGGGUAUGUAGGAGGACCUGGAGGUGGCAA: 0.209
UGGGAGGUGGAUUUUGUUUAUUUGUUUAGCUCAUUUCCAGGGGUGGGAAUUUUUUUUUAAUAUGUGUCAUGAAUAAAGUUGUUUUUGAAA: 0.267
CUGUGCUACACAUCGUAUGUACCGAAUCAAACCCCCCCAAAUUUUUUUAAAUUUUUUUAAAAAAGUAUUAUGUUACGCCGUUCGGAUCUG: -0.468
CAAGUCCUGUGCUACACAUCGUAUGUACCGAAUCGGGAAAGGGUUUUUGGGAGGGAAAGUAUUAUGUUACGCCGUUCGGAUCUGCACUUC: 0.889
ACCAUGCAGAAAGGCAUCUUUGGGAAGUGGGGCAAGGGGGGGAUAGGGAGGGGGGUAACACUUUGGGAACAGGUGGUCCCAGGUCGUUUC: 1.01
UCCUGUGCUACACAUCGUAUGUACCGAAUCGGGGUUUUUUUGGGGAAAGGGGUUUGGGGAAAGUAUUAUGUUACGCCGUUCGGAUCUGCA: 0.555
UCCUCAAGUCCUGUGCUACACAUCGUAUGUACCGAAUCGGUGGUGGGUGGGGAAAGUAUUAUGUUACGCCGUUCGGAUCUGCACUUCCAG: 0.515
AAGUCCUGUGCUACACAUCGUAUGUACCGAAUCAAACCCCCAAAUUUAAAUUUAAAAAAGUAUUAUGUUACGCCGUUCGGAUCUGCACUU: 0.261
GCAGGAAGUAAAAACAAAUGGAAAUGCUUCGGAUAGUGGCAGGGGUGGGGGUCGCUAAGGAAAGGGUGGGAUGGGAGUGGGUAAAGAGUU: 0.11
UAAUUAUGUUUUAUUUUCUUUAAUUGCAGGACUUCAUAGACCUCACGUUGUCGAAGACUCAACGAAAGACUCCAACCGUUAUUCAUAAAC: 0.235

Other studies, line by line
PhoQ, residues 284 288 289 292 302 303 TASMAF — fold induction (PhoP, residues 12 14 15 18 19 LWHSL (Escherichia coli, UniProt P23836); Sort-seq, item: YFP reporter; E. coli; PhoQ-PhoP variant library, together with: 10 µM Mg2+; baseline: high Mg2+ state, higher = stronger signaling): 12.9 and 24.8

Some of these lines once more (set 3):
AAGUCCUGUGCUACACAUCGUAUGUACCGAAUCAAACCCCCAAAUUUAAAUUUAAAAAAGUAUUAUGUUACGCCGUUCGGAUCUGCACUU: 0.261
UCCUCAAGUCCUGUGCUACACAUCGUAUGUACCGAAUCGGUGGUGGGUGGGGAAAGUAUUAUGUUACGCCGUUCGGAUCUGCACUUCCAG: 0.515
UGGGAGGUGGAUUUUGUUUAUUUGUUUAGCUCAUUUCCAGGGGUGGGAAUUUUUUUUUAAUAUGUGUCAUGAAUAAAGUUGUUUUUGAAA: 0.267
UAAUUAUGUUUUAUUUUCUUUAAUUGCAGGACUUCAUAGACCUCACGUUGUCGAAGACUCAACGAAAGACUCCAACCGUUAUUCAUAAAC: 0.235
ACCAUGCAGAAAGGCAUCUUUGGGAAGUGGGGCAAGGGGGGGAUAGGGAGGGGGGUAACACUUUGGGAACAGGUGGUCCCAGGUCGUUUC: 1.01
